Assay results from different studies.
Every numbered part comes from another study and shows a few of its results, in no order. Substitutions count along the parent as printed.

Series 1 — technique: RNA Bind-n-Seq; molecule type: RNA; sample: in vitro; concentration: 365 nM; baseline: no-protein control; direction: higher = stronger binding
Target: RNA binding protein fox-1 homolog 2, RRM domain, GST-SBP tag (RBFOX2, Homo sapiens, UniProt O43251-10, residues 100-194)
Setting: natural RNA segment, single round, ends assumed
Target sequence (chain): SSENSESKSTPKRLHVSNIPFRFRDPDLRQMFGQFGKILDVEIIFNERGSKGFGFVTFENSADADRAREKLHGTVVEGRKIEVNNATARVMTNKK
Strand	RBNS enrichment (R)
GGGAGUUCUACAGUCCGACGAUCAUUGUGUUGGGUGUGGGUGGUCUCCAAGGCCACGCUGCUCUCUGAAUUGAUUUUUUGAGUUUUGUUUGUAAGAUGAUCACAGUCAUGUUACACUGAUCUAAAGGACAUAUUGGAAUUCUCGGGUGCCAA	0.251
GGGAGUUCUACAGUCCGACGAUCGAUAUAUAUGUAUAUAUAUUUAAAUACACAUAUAUAUUGUACAGAAUAAAAAAUGUUUUAUUGGACACUCUGCUUAUUCUUAAGACACAGGUUCAACCUUCAAGACUAGAUGGAAUUCUCGGGUGCCAA	0.574
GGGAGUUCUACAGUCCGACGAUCGUUGAUGUUUGGUUCGGUAUUCUUGCAUAAAACUUAAAAAUUAAACGAACGCUGCAGAGUUUACUGAUGUAUAUCAAAGGCCAAUAAGCUCUUUUAAUUGGUGACAGAUCUGGAAUUCUCGGGUGCCAA	0.632
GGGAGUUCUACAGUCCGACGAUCUGUUGCAGACAUGGAUGAAAUGCUGCCCAGGUCUAAGGAGAACAAGAAGAGAGGACCUUGUUCUCUGUAGUUGGGAAUCCCAACUCUGAAUCUUUACAACAUCCAUCGUCUGGAAUUCUCGGGUGCCAA	1.14
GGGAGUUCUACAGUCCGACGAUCUGAAAUCACAGCCCUGCCAUUGGAGUGGGCGUUUGGAAUCCCUAGUGCUCCUGCUUUCAGUCCCCUCUGCCUUCCAGUGAUCUCUUUCCUACAAGCUGCUUCGAGGUCCAUGGAAUUCUCGGGUGCCAA	0.425
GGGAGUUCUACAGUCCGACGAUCUUCUUCCCAUGCCCUGCCUCAGUAUCCCCAGAACUUGUGGCAGACAUUCACAGGUGCACGCAUAUAUGUGUGUCGCCCCCACCCCCGCCAUGGCAUUUCAUGAUAUGUGAUGGAAUUCUCGGGUGCCAA	0.386

Series 2 — technique: RNAcompete; molecule type: RNA; sample: in vitro; concentration: 20 nM; setting: 7-mer, probes averaged, single round; baseline: mean of 7-mers; direction: higher = stronger binding
Target: PABPC1L2, full length, GST fusion (mouse, UniProt A0ABA7IW68)
Residues (chain): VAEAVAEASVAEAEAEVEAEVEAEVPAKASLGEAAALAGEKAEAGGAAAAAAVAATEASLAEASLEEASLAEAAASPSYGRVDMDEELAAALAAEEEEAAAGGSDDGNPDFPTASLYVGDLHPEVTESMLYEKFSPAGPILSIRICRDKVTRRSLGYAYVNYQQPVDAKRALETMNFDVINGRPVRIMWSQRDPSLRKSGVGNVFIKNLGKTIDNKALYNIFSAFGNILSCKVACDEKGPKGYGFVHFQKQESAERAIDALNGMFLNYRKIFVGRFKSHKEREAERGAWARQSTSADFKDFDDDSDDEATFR
Strand	7-mer Z-score
UUUGCCU	-0.44
AUGCGUG	-0.103
UUAAGGC	0.108
ACGGGAA	0.265
GUGUUCG	-0.467
AGCACCA	-0.0192
UUUCUAG	-0.358
AGCGGGC	0.0515

Series 3 — target: CCNB3, cyclin fold, Cln2 fusion (human); technique: yeast growth competition, sequencing; sample: yeast; setting: weak parent motif; baseline: not given; direction: higher = stronger binding
Parent: GMNC docking peptide (human); KNAKRNLSSEFAN; partner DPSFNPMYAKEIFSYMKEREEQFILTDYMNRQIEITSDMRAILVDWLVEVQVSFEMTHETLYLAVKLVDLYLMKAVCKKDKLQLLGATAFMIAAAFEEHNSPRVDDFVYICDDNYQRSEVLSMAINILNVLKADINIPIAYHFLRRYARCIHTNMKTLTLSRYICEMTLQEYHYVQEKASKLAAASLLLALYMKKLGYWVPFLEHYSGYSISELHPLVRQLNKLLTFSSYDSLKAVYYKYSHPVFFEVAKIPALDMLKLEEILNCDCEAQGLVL
Substitution	normalised enrichment score
KNAKRNLSSEDAN [F11D]	0.361
KQAKRNLSSEFAN [N2Q]	0.275
KNAKRNLVSEFAN [S8V]	0.323
KNAKQNLSSEFAN [R5Q]	-0.0925
KNAKRNYSSEFAN [L7Y]	0.18
KGAKRNLSSEFAN [N2G]	0.138
KNAKRNLSSPFAN [E10P]	0.209

Mixed results
Molecule	target	assay	test system	setting	how to read	endpoint	result
PhoQ, residues 284 288 289 292 302 303 NLMGRA	PhoP, residues 12 14 15 18 19 LHSVQ (Escherichia coli, UniProt P23836)	Sort-seq, measured: YFP reporter	E. coli	PhoQ-PhoP variant library, with: 10 µM Mg2+	baseline: high Mg2+ state, higher = stronger signaling	fold induction	13.2

A few entries again (series 2):
Strand	7-mer Z-score
ACGGGAA	0.265
AUGCGUG	-0.103
